Measured values pooled from the literature.
Numbered parts are unrelated; each lists some results of a single study. Changes are numbered by the printed parent chain.

Series 1
Target: PABPC1L2, full length, GST fusion (mouse, UniProt A0ABA7IW68)
Technique: RNAcompete
Molecule type: RNA
Matrix: in vitro
Concentration: 20 nM
Setting: 7-mer, probes averaged, single round
Reference: mean of 7-mers
Direction: higher = stronger binding
Residues (chain): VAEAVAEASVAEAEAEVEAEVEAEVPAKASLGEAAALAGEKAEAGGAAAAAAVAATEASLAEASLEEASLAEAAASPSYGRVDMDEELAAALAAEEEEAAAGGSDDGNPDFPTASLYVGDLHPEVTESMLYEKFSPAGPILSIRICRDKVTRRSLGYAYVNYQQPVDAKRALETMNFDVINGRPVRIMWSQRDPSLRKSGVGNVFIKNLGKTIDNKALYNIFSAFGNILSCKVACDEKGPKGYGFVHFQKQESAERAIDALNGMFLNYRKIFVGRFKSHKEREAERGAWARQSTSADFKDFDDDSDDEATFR
With `ACCGACG` the 7-mer Z-score was -0.128.
With `UGUAUGU` the 7-mer Z-score was -0.315.
With `ACUUAUA` the 7-mer Z-score was 0.0424.
The 7-mer Z-score of `GAGCGGA` is reported as 0.164.
With `GGAUGUC` the 7-mer Z-score was -0.0482.
With `AGGCGCU` the 7-mer Z-score was -0.0138.
`CGGUGCU` has a 7-mer Z-score of -0.0355.
The 7-mer Z-score of `CCAGAUC` is reported as -0.144.

Series 2
Target: Centromere-binding protein 1, full length, His-tagged (CBF1, Saccharomyces cerevisiae, UniProt P17106, residues 1-351)
Chain of UniProt P17106 (whole entry, looked up): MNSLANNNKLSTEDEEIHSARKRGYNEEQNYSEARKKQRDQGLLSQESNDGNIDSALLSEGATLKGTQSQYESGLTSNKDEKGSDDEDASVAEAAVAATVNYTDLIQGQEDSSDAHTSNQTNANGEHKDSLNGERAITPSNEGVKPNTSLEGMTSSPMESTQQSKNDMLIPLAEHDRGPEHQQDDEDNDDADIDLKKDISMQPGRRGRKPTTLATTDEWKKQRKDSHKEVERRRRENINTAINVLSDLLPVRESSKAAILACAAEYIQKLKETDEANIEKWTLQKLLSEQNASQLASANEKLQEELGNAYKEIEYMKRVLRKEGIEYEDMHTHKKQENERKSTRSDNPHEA
Technique: competition protein-binding microarray
Molecule type: double-stranded DNA, one strand shown
Matrix: in vitro
Concentration: 2 µM
Setting: whole 60-bp probe, lowest competitor level
Together with: Pho4 competitor, 0.05 µM
Direction: higher = stronger binding
All sequences stand within: … GTCTTGATTCGCTTGACGCTGCTG
With `TGAACCAGTCAATATCACACTTCCAAATGGTTTGAC` the fluorescence intensity was 84.7 a.u.
`TTAAATCGATTGGATCAGGTGAGGAAGTACTCAGTG` has a fluorescence intensity of 248 a.u.
`ACTTTAAGACGAGACCTCGTGGAACCAAGATCGGTG` has a fluorescence intensity of 88.6 a.u.
`TGGTTGGCATCTTATCCCGTGGTGAATCCATTACCA` gave a fluorescence intensity of 138 a.u.
With `ATTTGAACACCCCGTCACCTGAGTTAGGTAATTCAT` the fluorescence intensity was 137 a.u.
`CCCGCCCAAGCCGACCACGTGCCGCGAGCCCGGCGG` has a fluorescence intensity of 2040 a.u.
`CGTCCTAGTGATTGTCACCACACTTCCATGAGGAAG` gave a fluorescence intensity of 95.9 a.u.
For `GCTGTTGAGTTTGCGGACGTGTCGGAGAGCGCGTAG`, the fluorescence intensity was 59.6 a.u.

Series 3
Target: RING finger protein unkempt homolog, zinc fingers 1-6, GST-SBP tag (UNK, Homo sapiens, UniProt Q9C0B0, residues 30-357)
Technique: RNA Bind-n-Seq
Molecule type: RNA
Matrix: in vitro
Concentration: not given
Setting: RNA with constant flanks, human-mouse chimeric sites, ends assumed
Reference: input RNA pool
Direction: higher = stronger binding
All sequences stand within: GGGAGUUCUACAGUCCGACGAUC … CAACAGAGGAUUGAGCAUCA
Residues (chain): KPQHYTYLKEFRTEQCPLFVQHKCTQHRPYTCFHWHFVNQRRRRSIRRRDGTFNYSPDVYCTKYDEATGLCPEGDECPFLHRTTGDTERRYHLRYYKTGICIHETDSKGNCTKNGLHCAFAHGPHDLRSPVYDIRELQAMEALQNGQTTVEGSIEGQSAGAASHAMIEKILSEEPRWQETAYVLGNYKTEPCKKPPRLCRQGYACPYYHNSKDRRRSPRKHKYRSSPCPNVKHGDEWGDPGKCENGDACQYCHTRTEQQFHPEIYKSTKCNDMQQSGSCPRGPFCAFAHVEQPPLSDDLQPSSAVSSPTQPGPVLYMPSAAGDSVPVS
`UCCCUGUUGCUGAAUAAAUGGCUUGUAAAGAAGUUUUUCCAAGCUGUAACCCAUGCUGUUAUUAUAGUUGCUGCAAAAUGUUCUUCCUAUUGAUGUUUUUAUUUGUUAACUGAAGGUCUC` has a bound/input enrichment of 0.569 ratio.
`CUGAAAAACACAGAUAUCAAAGUUGUUGACUUUGGAAGUGCAACGUAUGAUGAUGAACAUCAUAGUACUUUGGUGUCUACCCGGCACUACAGAGCUCCAGAGGUCAUUUUGGCUUUAGGU` gave a bound/input enrichment of 0.35 ratio.
The bound/input enrichment of `AGGAGGAGGUUAAAGGGUGAGAGUGGGGUGGAAGACUGUGUCAUGGCUCUGGAGACACUGUUCAGUGUUCUGCUUUCUCUUUGCAGACUGAUGGCCCCUUACACGCCCUUUCUGACUGAG` is reported as 0.0831 ratio.
`ACCAUUUUCGCGGUUCAGGCUUUGUGUUGUAUUUACUUACGGUAUUAAAUUAUUAUUCUGCUUAGCUUAUAAUAAGGAUUACAAUUGUUAAAGAGGUUACUGAAUGUUACUCUGAAACUU` gave a bound/input enrichment of 0.542 ratio.
With `CUCAGAGAUGUGGCAUAUCAGUAUGUGAAAAAGGGGGCUCGAAUUUAUGUGGAAGGGAAAGUGGACUAUGGUGAAUACAUGGAUAAAAACAAUGUGAGGCGGCAAGCAACAACAAUCAUA` the bound/input enrichment was 0.362 ratio.
`CUGAGGAUACCACUGAAGAGACCUUAAAAGAAUCAUUUGAGGGCUCUGUUCGUGCAAGAAUAGUCACUGAUCGGGAAAACUGGGUCCCCAAAGGGUUUGGUUUUGUAAGACUUCAACGUG` has a bound/input enrichment of 0.182 ratio.
With `AAAGAACUACUGAGGCAAGGCAGCAAAUUUAGAAGAAACAUUUCAACAAUAUUGAUAGAGUUAGGAUUCCAAAUUAAAAAGAAAACUAAGACAUUAUACAUCAACAAAGCCAAUGUGUGG` the bound/input enrichment was 20.2 ratio.
With `UGUAACUCUUAUCUGUAAGGUUCCCCCCCCCUACUGUAAAAAAAUAUGCAUGUAUAGUAAUUAGGACUUCAUUCCUCCAUGUUUUCUUCCCUUAUCUUACUGUCAUUGUCCUUAAACCUU` the bound/input enrichment was 3.31 ratio.

Single results of other studies
Parent: viral docking peptide; YKVKRRLVFGADD
`YKVKRRLVFGACD [D12C]` — result for “normalised enrichment score”: 1.6 (CCNB3, cyclin fold, Cln2 fusion (human); yeast growth competition, sequencing; yeast; strong parent motif; reference: not given, higher = stronger binding).

Some of these lines once more (series 3):
`CUGAGGAUACCACUGAAGAGACCUUAAAAGAAUCAUUUGAGGGCUCUGUUCGUGCAAGAAUAGUCACUGAUCGGGAAAACUGGGUCCCCAAAGGGUUUGGUUUUGUAAGACUUCAACGUG` has a bound/input enrichment of 0.182 ratio.
`ACCAUUUUCGCGGUUCAGGCUUUGUGUUGUAUUUACUUACGGUAUUAAAUUAUUAUUCUGCUUAGCUUAUAAUAAGGAUUACAAUUGUUAAAGAGGUUACUGAAUGUUACUCUGAAACUU` gave a bound/input enrichment of 0.542 ratio.
The bound/input enrichment of `AGGAGGAGGUUAAAGGGUGAGAGUGGGGUGGAAGACUGUGUCAUGGCUCUGGAGACACUGUUCAGUGUUCUGCUUUCUCUUUGCAGACUGAUGGCCCCUUACACGCCCUUUCUGACUGAG` is reported as 0.0831 ratio.
`CUGAAAAACACAGAUAUCAAAGUUGUUGACUUUGGAAGUGCAACGUAUGAUGAUGAACAUCAUAGUACUUUGGUGUCUACCCGGCACUACAGAGCUCCAGAGGUCAUUUUGGCUUUAGGU` gave a bound/input enrichment of 0.35 ratio.
